# Results of several laboratories.
# Lines come from different studies, so protocols differ. “And” joins repeats or separate records; there may be more than shown. ± marks the error that the study gave.
# PSMB8: Proteasome subunit beta type-8 (PSMB8, Homo sapiens, UniProt P28062)
# Chain of UniProt P28062 (whole entry, looked up): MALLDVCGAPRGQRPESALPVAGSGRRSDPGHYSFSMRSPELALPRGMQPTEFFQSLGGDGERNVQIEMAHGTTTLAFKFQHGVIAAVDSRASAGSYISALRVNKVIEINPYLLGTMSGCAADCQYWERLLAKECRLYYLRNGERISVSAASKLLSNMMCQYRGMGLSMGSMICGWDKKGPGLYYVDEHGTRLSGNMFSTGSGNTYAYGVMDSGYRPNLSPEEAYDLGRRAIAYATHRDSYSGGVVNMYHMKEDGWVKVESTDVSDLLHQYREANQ
# IRAK4: Interleukin-1 receptor-associated kinase 4 (IRAK4, Homo sapiens, UniProt Q9NWZ3)
# Chain of UniProt Q9NWZ3 (whole entry, looked up): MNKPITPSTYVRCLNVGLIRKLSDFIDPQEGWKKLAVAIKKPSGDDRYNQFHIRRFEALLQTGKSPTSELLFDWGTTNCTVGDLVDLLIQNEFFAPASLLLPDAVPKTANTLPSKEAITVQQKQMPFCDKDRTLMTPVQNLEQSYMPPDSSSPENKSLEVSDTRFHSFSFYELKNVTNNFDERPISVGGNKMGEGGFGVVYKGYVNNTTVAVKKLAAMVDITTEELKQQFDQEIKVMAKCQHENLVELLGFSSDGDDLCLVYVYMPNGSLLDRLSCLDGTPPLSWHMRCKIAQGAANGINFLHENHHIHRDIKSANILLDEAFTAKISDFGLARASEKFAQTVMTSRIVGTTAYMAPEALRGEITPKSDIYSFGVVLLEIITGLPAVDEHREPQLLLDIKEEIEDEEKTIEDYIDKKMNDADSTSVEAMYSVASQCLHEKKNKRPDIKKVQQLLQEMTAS
# GBA1 R534H: Lysosomal acid glucosylceramidase (GBA1, Homo sapiens, UniProt P04062, R534H)
# Chain of UniProt P04062 (whole entry, unmodified, looked up): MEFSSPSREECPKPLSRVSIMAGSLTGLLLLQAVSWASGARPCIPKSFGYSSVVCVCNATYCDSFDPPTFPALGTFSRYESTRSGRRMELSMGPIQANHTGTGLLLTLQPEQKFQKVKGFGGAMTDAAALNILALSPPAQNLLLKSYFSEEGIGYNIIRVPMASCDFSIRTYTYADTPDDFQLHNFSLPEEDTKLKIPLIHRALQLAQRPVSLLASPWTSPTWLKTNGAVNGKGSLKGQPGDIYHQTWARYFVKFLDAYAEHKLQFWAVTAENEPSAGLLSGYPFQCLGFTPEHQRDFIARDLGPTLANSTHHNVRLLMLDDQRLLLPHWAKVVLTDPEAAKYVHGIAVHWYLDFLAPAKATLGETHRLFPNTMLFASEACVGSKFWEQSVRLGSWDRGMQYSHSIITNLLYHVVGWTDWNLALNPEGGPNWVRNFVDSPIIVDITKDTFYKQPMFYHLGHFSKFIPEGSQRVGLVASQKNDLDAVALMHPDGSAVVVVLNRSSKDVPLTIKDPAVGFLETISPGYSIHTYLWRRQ
# Gria1/Gria2: Glutamate receptor AMPA 1/2 (Gria1/Gria2, Rattus norvegicus, UniProt P19490+P19491)
# Chain of UniProt P19491 (whole entry, looked up): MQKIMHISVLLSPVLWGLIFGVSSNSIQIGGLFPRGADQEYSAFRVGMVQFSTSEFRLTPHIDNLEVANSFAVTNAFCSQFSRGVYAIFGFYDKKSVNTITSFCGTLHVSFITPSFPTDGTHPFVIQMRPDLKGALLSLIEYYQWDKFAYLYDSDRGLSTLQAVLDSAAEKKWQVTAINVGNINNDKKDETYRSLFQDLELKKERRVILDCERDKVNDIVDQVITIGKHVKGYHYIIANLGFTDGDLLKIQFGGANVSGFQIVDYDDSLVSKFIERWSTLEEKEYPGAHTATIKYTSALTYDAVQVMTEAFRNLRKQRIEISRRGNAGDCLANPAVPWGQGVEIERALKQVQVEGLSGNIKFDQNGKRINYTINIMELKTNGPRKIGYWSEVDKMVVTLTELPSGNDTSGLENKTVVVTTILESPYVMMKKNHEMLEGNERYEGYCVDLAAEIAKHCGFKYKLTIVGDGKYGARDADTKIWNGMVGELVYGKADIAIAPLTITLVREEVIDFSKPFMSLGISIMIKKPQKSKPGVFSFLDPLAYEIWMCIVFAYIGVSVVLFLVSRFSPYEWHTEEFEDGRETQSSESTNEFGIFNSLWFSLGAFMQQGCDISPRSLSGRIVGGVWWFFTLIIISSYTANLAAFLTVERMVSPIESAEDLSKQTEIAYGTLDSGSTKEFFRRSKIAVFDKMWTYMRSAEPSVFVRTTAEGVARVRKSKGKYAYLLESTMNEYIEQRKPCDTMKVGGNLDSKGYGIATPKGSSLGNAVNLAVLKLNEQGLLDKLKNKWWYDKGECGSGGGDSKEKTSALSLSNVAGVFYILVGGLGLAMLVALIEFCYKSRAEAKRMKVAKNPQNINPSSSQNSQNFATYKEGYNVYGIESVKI
# Chain of UniProt P19490 (whole entry, looked up): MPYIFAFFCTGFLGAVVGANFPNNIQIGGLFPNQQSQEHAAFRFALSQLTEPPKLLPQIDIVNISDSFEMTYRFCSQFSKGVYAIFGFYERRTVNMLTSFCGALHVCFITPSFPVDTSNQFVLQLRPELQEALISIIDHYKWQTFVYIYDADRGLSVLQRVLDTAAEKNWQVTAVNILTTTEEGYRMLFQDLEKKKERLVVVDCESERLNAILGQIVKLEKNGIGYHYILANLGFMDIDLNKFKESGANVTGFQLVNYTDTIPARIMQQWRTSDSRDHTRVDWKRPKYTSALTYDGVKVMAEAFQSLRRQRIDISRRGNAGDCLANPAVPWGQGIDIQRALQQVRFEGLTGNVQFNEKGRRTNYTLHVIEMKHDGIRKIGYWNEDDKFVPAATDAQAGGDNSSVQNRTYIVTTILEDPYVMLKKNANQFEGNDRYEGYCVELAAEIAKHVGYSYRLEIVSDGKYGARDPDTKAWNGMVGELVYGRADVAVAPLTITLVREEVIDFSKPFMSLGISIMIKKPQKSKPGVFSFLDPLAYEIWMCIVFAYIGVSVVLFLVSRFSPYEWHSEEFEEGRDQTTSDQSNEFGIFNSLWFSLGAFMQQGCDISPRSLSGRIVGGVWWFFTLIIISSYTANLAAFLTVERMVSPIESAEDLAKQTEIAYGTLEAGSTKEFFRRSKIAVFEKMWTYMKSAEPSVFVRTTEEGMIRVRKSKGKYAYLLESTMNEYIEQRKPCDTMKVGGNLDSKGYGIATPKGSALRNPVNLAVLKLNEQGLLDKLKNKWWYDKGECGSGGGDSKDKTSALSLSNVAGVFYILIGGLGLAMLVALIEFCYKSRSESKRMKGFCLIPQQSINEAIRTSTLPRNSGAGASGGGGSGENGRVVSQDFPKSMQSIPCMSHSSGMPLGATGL
# P4HB: Protein disulfide-isomerase (P4HB, Homo sapiens, UniProt P07237)
# Chain of UniProt P07237 (whole entry, looked up): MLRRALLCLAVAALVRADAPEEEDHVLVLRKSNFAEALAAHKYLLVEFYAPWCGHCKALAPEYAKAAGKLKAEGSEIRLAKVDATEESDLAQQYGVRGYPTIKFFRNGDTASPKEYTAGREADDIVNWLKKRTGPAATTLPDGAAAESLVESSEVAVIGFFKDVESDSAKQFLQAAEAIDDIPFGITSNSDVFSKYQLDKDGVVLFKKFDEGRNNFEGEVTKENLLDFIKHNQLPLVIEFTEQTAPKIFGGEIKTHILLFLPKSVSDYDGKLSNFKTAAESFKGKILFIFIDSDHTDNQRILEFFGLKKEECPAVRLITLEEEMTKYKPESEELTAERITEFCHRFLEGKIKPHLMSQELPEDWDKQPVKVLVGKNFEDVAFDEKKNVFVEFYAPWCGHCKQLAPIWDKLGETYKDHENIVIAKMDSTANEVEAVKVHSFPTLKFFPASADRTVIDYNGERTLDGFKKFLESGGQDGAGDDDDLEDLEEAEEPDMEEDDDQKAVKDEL
# HDAC6: Protein deacetylase HDAC6 (HDAC6, Homo sapiens, UniProt Q9UBN7)
# Chain of UniProt P22607 (whole entry, unmodified, looked up): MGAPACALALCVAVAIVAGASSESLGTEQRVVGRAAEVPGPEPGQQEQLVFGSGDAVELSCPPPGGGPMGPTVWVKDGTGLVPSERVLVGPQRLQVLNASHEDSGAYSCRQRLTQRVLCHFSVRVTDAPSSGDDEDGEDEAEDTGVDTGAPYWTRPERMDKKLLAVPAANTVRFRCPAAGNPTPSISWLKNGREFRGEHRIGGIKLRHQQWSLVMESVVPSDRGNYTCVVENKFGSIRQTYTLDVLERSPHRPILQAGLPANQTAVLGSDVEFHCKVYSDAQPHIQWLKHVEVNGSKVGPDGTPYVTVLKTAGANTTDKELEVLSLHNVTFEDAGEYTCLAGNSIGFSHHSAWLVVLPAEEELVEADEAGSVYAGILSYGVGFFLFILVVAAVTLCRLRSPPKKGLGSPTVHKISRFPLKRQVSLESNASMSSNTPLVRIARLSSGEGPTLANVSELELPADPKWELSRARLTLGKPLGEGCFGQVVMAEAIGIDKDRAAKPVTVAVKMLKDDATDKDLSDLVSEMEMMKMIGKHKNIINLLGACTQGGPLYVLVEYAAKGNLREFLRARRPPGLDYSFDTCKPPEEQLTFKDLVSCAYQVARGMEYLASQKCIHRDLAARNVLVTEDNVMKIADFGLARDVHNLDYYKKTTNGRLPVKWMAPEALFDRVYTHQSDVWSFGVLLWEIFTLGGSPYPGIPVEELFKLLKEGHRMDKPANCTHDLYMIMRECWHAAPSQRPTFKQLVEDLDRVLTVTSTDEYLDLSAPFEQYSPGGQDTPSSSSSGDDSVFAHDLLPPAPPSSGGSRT
# Chain of UniProt Q99436 (whole entry, looked up): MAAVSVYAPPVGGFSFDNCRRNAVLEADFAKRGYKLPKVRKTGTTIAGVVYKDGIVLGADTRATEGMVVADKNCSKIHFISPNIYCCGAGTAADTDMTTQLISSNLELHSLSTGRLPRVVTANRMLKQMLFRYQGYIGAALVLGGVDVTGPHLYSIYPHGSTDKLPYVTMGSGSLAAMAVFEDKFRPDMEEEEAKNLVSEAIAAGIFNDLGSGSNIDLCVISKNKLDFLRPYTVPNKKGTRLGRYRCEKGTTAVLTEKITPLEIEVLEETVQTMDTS
# Chain of UniProt P13346 (whole entry, unmodified, looked up): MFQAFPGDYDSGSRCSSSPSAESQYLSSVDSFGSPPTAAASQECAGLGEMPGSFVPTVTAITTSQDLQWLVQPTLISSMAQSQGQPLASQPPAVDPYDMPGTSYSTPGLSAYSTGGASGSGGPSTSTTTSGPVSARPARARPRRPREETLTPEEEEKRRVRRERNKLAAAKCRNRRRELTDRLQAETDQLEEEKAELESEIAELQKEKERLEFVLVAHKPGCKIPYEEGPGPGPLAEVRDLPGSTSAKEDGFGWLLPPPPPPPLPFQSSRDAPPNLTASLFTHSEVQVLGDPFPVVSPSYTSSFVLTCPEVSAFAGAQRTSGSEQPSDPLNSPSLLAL
SMILES,target,assay,test system,setting,IC50
CC(=O)OC1OC(OC(C)=O)C2CC(O)(C3(C)CCCC(C)(C)C3)CCC12 (stereo not shown),"PPIF (Homo sapiens, UniProt P30405)","enzyme activity, inhibitor",,,< 0.5 µM
COC1CCC(C[C@H](NC(=O)[C@H](CC(C)C)NC(=O)[C@H](Cc2ccc(CN)cc2)NC(=O)[C@H](Cc2ccccc2)N=[N+]=[N-])C(=O)[C@@]2(C)CO2)CC1 (stereo partly shown),PSMB8,"enzyme activity, inhibitor",,lysate,> 10 µM
C#Cc1cnc(Nc2ccnc(CO)c2)nc1Nc1ccccc1-c1nccs1,IRAK4,,,cell-based,0.0823 ± 0.00262 µM
CCOc1cc(CN2CC3(CC(N4CCC(C(=O)O)CC4)=NO3)C2)cc(OCC)c1-c1ccc(F)cc1,"SSTR5 (Homo sapiens, UniProt P35346)","cAMP level, agonist, GloSensor",AD293,with: CST17 EC80 and forskolin,0.2 µM
CCCC(=O)OC1CCC2(C)C(CCC3(C)C2CC=C2C4C(C)C(C)CCC4(C(=O)O)CCC23C)C1(C)C (stereo not shown),"UGT1A6 (Homo sapiens, UniProt P19224)","enzyme activity, inhibitor",,,> 100 µM
CC(C)=CCC/C(C)=C/CC/C(C)=C/COCCCCCN1C[C@H](O)[C@@H](O)[C@H](O)[C@@H]1CO,GBA1 R534H,"inhibitor, 4MU-β-D-glucopyranoside",,with: 4MU-β-D-glucopyranoside,50 µM
COC(=O)Cc1cc2c(cc1C(=O)c1ccccc1I)OCO2,Gria1/Gria2,"ion current, patch clamp",,,5.98 µM
CCCCCCCOCCCCCN1C[C@H](O)[C@@H](O)[C@H](O)[C@@H]1CO,GBA1 R534H,"inhibitor, 4MU-β-D-glucopyranoside",,with: 4MU-β-D-glucopyranoside,40 µM
COC(=O)Cc1cc2c(cc1C(=O)c1ccccc1Br)OCO2,Gria1/Gria2,"ion current, antagonist, patch clamp",,,5.5 µM
Cc1cnc(Nc2ccc3c(c2)CCN(C(=O)/C=C/C(=O)C2CCCC2)C3)nc1-c1cnn(C(C)C)c1,"JAK3 (Homo sapiens, UniProt P52333)","enzyme activity, inhibitor, ADP detection",,,> 0.03 µM
CC1(C)CCC(CN2CCN(c3ccc(C(=O)NS(=O)(=O)c4ccc(NCC5CCOCC5)c([N+](=O)[O-])c4)c(Oc4cnc5[nH]ccc5c4)c3)CC2)=C(c2ccc(Cl)cc2)C1,"Bcl-2-related protein A1 (Homo sapiens, UniProt Q16548)","binding, inhibitor, TR-FRET competition",,with: BAX-derived peptide,> 10 µM
C[C@@H](O)[C@@H]1NC(=O)[C@H](CCCCN)NC(=O)[C@@H](Cc2c[nH]c3ccccc23)NC(=O)[C@H](Cc2ccc(NC(N)=O)cc2)NC(=O)[C@H](NC(=O)[C@@H](N)Cc2ccc(Cl)cc2)CSSC[C@@H](C(=O)N[C@@H](Cc2ccc3ccccc3c2)C(N)=O)NC1=O,"SSTR1 (Homo sapiens, UniProt P30872)","ligand displacement, radioligand",,,> 1 µM
COc1cccc(/C=C/C(=O)c2ccc(Cl)c(Cl)c2)c1OC,P4HB,"enzyme activity, inhibitor",,,78 µM
OC[C@@H]1[C@@H](O)[C@H](O)[C@@H](O)CN1CCCCCOCc1ccsc1,GBA1 R534H,"inhibitor, 4MU-β-D-glucopyranoside",,with: 4MU-β-D-glucopyranoside,11 µM
Cn1cc(-c2ccc3[nH]c4nccc(N[C@H]5CC[C@H](N6CCOCC6)CC5)c4c3c2)cn1,IRAK4,"enzyme activity, inhibitor, AlphaScreen",,with: ATP 200 µM,0.0336 µM
OC[C@@H]1[C@@H](O)[C@H](O)[C@@H](O)CN1CCCCCOCc1ccccc1,GBA1 R534H,"inhibitor, 4MU-β-D-glucopyranoside",,with: 4MU-β-D-glucopyranoside,0.3 µM
COc1ccc(/C=C/C(=O)c2ccc(Br)cc2)cc1OC,P4HB,"enzyme activity, inhibitor",,,> 100 µM
O=C(CCc1ccc(CNC(C(=O)O)C2CCCCC2)cn1)NO (stereo not shown),"HDAC10 (Homo sapiens, UniProt Q969S8)","enzyme activity, inhibitor",,,1.7 µM
CC(C)(C)OC(=O)N1CCN(c2ccc3c(O)c(C(=O)NCc4ccc(C#N)nc4)ncc3n2)CC1,"KDM3B (Homo sapiens, UniProt Q7LBC6)","enzyme activity, inhibitor, AlphaScreen",,,> 10 µM
O=C(O)Cc1cc2c(cc1C(=O)c1cccc(I)c1)OCO2,Gria1/Gria2,"ion current, antagonist, patch clamp",,,4.68 µM
CCOc1cc(/C=C/C(=O)c2ccc(Cl)cc2)ccc1O,P4HB,"enzyme activity, inhibitor",,,88 µM
CC[C@H](C)C(=O)O[C@H]1C[C@@H](C)C=C2C=C[C@H](C)[C@H](CC[C@@H]3CC=CC(=O)O3)[C@H]21,"CFTR (Homo sapiens, UniProt P13569)","apical chloride current, inhibitor","T84, basolaterally permeabilized",with: cAMP agonists,~1 µM
Cc1nn(-c2cccc(N)c2)c(=O)c2cnc(Nc3ccc(N4CCNCC4)cc3)nc12,"FGFR3 (Homo sapiens, UniProt P22607, K650E)","enzyme activity, inhibitor",,,> 10 µM
O=C(O)Cc1cc2c(cc1C(=O)c1cccc(Cl)c1)OCO2,Gria1/Gria2,"ion current, patch clamp",,,4.19 µM
CC(C)(C)NC(=O)C1CCN(Cc2cccc(N=Nc3ccc(F)cc3)c2)CC1,"ACKR3 (Homo sapiens, UniProt P25106)","ligand displacement, BRET",,,0.398 µM
O=C(/C=C/c1ccc(Cl)c(C(=O)O)c1)c1ccc(Br)cc1,P4HB,"enzyme activity, inhibitor",,,90 µM
CC(C)(C)n1ncc2c(=O)n(Cc3cccc(F)c3)c(NCc3ccc(F)cn3)nc21,"PDE10A (Homo sapiens, UniProt Q9Y233)","enzyme activity, inhibitor",,,> 10 µM
CCN(CC)CC(=O)Nc1cccc(-n2cc(-c3ccc4ccc(-c5cn(-c6cccc(NC(=O)CN(CC)CC)c6)nn5)cc4c3)nn2)c1,"FGFR3 (Homo sapiens, UniProt P22607)","enzyme activity, inhibitor",,,> 10 µM
COCCN(C)C(C)C(=O)NC(Cc1ccc(-c2ccccc2)cc1)B(O)O (stereo not shown),"PSMB6/PSMB7 (Homo sapiens, UniProt P28072+Q99436)","β1c caspase-like activity, inhibitor",,"constitutive proteasome, with: Z-LLE-AMC",> 10 µM
O=C(NO)c1cc(F)cc(OS(=O)(=O)Oc2ccc3ccccc3c2)c1,HDAC6,"enzyme activity, inhibitor, fluorescence",,,0.119 µM
O=C(/C=C/c1cccc(Br)c1)c1ccc(O)c(CCCl)c1,P4HB,"enzyme activity, inhibitor",,,32 µM
OC[C@H]1[C@@H](O)[C@H](O)[C@@H](O)CN1CCCC/C=C\C12CC3CC(CC(C3)C1)C2,GBA1 R534H,"inhibitor, 4MU-β-D-glucopyranoside",,with: 4MU-β-D-glucopyranoside,12 µM
COC(=O)Cc1cc2c(cc1C(=O)c1ccccc1)OCO2,Gria1/Gria2,"ion current, antagonist, patch clamp",,,6.03 µM
O=C(CN1CN(c2ccccc2)C2(CCN(C(=O)c3ccc4[nH]ncc4c3)CC2)C1=O)NCC(F)(F)F,"DDR1 (Homo sapiens, UniProt Q08345)",ligand displacement,,,0.015 µM
O=[N+]([O-])c1ccc(O[C@@H]2C=C(CO)[C@@H](O)[C@H](O)[C@H]2O)c([N+](=O)[O-])c1,"GBA1 (Homo sapiens, UniProt P04062)",,,with: resorufin β-glucoside at Km,0.17 ± 0.03 µM
O=C(/C=C/c1cc(Br)ccc1F)c1ccc(O)cc1,P4HB,"enzyme activity, inhibitor",,,1.07 µM
Cc1cc(C(C)(C)C)ccc1OS(=O)(=O)Oc1cccc(/C=C/C(=O)NO)c1,HDAC6,"enzyme activity, inhibitor, fluorescence",,,1.96 µM
Cc1cc(C)nc(Nc2ccc([C@@H]3CCCN(C(=O)/C=C/c4c(C)nn(C)c4C)C3)nc2)n1,"CDK6 (Homo sapiens, UniProt Q00534)","enzyme activity, inhibitor, ADP detection",,,0.196 µM
C=C[C@H]1[C@H](O[C@@H]2O[C@H](COC(=O)/C=C/c3ccc(O)cc3)[C@@H](O)[C@H](O)[C@H]2O)OC=C(C(=O)O)[C@H]1CC(=O)O,"ACE (Oryctolagus cuniculus, UniProt P12822)",enzyme activity,,,119 ± 2.34 µM
CCCCc1nc2c([nH]1)[C@H](O)[C@@H](O)[C@H](O)[C@H]2O,GBA1 R534H,,,"30 min preincubation, pH 5.2, with: 200 µM 2,4-dinitrophenyl-β-D-glucopyranoside",0.192 µM
CCN(CC)CCNc1ccc(CO)c2sc3ccccc3c(=O)c12,"WDR5 (Homo sapiens, UniProt P61964)",,,,≤ 20 µM and 17.6 µM
NC(=O)c1ccc(C(=O)NOCc2ccc(Sc3cccc(Cl)c3)c(C(F)(F)F)c2)cc1,"Cytochrome P450 2E1 (CYP2E1, Homo sapiens, UniProt P05181)",,pooled human liver microsomes,10 min,> 30 µM
COCCN(C)CC(=O)NC(Cc1ccc(-c2ccccc2)cc1)B(O)O (stereo not shown),"20S proteasome, beta1 subunit (Plasmodium falciparum, UniProt Q8I0U7+Q8I6T3)","β1 activity, inhibitor",,with: Ac-nLPnLD-AMC,> 10 µM
OC[C@@H]1[C@@H](O)[C@H](O)[C@@H](O)CN1CCCCCOCC1CC1,GBA1 R534H,"inhibitor, 4MU-β-D-glucopyranoside",,with: 4MU-β-D-glucopyranoside,51 µM
CC(C)C[C@H](NC(=O)[C@H](Cc1ccc(CN)cc1)NC(=O)[C@H](Cc1ccccc1)N=[N+]=[N-])C(=O)N[C@@H](CC1CC2CCC1C2)C(=O)[C@@]1(C)CO1 (stereo in doubt),PSMB8,"enzyme activity, inhibitor",,lysate,> 10 µM
CCCCCCCCN1C[C@H](O)[C@@H](O)[C@H](O)[C@H]1CO,GBA1 R534H,"inhibitor, 4MU-β-D-glucopyranoside",,with: 4MU-β-D-glucopyranoside,4 µM
N#Cc1c(-c2ccco2)cc(-c2cccs2)[nH]c1=O,"Protein FosB, ΔFosB isoform, with JunD (Fosb, Mus musculus, UniProt P13346)","DNA binding, fluorescence polarization",,with: 1 mM TCEP,14.7 µM
OC[C@@H]1[C@@H](O)[C@H](O)[C@@H](O)CN1CCCCCOCC1CCCC1,GBA1 R534H,"inhibitor, 4MU-β-D-glucopyranoside",,with: 4MU-β-D-glucopyranoside,13 µM
O=C(O)c1ccc2[nH]c(-c3ccc(OCC(O)COc4ccc(-c5nc6cc(C(=O)O)ccc6[nH]5)cc4)cc3)nc2c1,"Beta-lactamase (Escherichia coli, UniProt Q8VNN1)","enzyme activity, inhibitor",,,69 ± 22 µM

# Some of these lines once more:
SMILES,target,assay,test system,setting,IC50
Cc1cnc(Nc2ccc3c(c2)CCN(C(=O)/C=C/C(=O)C2CCCC2)C3)nc1-c1cnn(C(C)C)c1,"JAK3 (Homo sapiens, UniProt P52333)","enzyme activity, inhibitor, ADP detection",,,> 0.03 µM
CC1(C)CCC(CN2CCN(c3ccc(C(=O)NS(=O)(=O)c4ccc(NCC5CCOCC5)c([N+](=O)[O-])c4)c(Oc4cnc5[nH]ccc5c4)c3)CC2)=C(c2ccc(Cl)cc2)C1,"Bcl-2-related protein A1 (Homo sapiens, UniProt Q16548)","binding, inhibitor, TR-FRET competition",,with: BAX-derived peptide,> 10 µM
C[C@@H](O)[C@@H]1NC(=O)[C@H](CCCCN)NC(=O)[C@@H](Cc2c[nH]c3ccccc23)NC(=O)[C@H](Cc2ccc(NC(N)=O)cc2)NC(=O)[C@H](NC(=O)[C@@H](N)Cc2ccc(Cl)cc2)CSSC[C@@H](C(=O)N[C@@H](Cc2ccc3ccccc3c2)C(N)=O)NC1=O,"SSTR1 (Homo sapiens, UniProt P30872)","ligand displacement, radioligand",,,> 1 µM
COc1cccc(/C=C/C(=O)c2ccc(Cl)c(Cl)c2)c1OC,P4HB,"enzyme activity, inhibitor",,,78 µM
OC[C@@H]1[C@@H](O)[C@H](O)[C@@H](O)CN1CCCCCOCc1ccsc1,GBA1 R534H,"inhibitor, 4MU-β-D-glucopyranoside",,with: 4MU-β-D-glucopyranoside,11 µM
